Published values from different studies.
Lines come from different studies, so protocols differ.
CTSL: Procathepsin L (CTSL, Homo sapiens, UniProt P07711)
UniProt P07711, sequence (whole entry, looked up): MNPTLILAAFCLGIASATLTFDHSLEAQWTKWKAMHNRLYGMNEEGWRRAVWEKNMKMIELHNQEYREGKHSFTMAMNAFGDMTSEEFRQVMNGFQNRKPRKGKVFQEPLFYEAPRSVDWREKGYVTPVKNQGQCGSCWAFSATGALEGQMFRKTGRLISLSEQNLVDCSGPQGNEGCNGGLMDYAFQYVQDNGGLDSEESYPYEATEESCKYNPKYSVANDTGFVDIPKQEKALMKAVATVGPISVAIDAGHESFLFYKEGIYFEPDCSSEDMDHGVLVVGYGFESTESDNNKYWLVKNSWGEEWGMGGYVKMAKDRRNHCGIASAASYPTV
GSK3B: Glycogen synthase kinase-3 beta (GSK3B, Homo sapiens, UniProt P49841)
UniProt P49841, sequence (whole entry, looked up): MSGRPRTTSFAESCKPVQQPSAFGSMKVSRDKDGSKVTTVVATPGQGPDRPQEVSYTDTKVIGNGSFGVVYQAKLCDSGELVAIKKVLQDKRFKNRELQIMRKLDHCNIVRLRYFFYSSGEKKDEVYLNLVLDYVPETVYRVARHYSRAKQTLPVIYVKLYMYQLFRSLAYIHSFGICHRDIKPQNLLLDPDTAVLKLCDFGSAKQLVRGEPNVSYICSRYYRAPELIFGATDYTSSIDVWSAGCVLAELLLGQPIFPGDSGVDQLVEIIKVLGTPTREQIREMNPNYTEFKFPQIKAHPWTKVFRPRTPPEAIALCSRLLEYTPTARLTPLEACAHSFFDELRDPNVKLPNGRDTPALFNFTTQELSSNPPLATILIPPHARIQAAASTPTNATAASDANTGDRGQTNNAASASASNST
DRD3: D(3) dopamine receptor (DRD3, Homo sapiens, UniProt P35462)
UniProt P35462, sequence (whole entry, looked up): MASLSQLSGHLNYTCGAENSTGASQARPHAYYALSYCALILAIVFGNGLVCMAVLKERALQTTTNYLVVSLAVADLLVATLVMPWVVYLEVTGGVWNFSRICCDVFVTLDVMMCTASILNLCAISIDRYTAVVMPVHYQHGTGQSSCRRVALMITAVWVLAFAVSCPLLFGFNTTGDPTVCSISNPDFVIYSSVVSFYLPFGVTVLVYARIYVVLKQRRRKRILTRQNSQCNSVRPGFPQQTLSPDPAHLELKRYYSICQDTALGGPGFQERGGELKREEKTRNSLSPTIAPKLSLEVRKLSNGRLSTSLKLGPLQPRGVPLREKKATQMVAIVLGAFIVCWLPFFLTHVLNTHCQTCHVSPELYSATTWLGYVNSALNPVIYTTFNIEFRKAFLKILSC
UniProt P10721, sequence (whole entry, unmodified, looked up): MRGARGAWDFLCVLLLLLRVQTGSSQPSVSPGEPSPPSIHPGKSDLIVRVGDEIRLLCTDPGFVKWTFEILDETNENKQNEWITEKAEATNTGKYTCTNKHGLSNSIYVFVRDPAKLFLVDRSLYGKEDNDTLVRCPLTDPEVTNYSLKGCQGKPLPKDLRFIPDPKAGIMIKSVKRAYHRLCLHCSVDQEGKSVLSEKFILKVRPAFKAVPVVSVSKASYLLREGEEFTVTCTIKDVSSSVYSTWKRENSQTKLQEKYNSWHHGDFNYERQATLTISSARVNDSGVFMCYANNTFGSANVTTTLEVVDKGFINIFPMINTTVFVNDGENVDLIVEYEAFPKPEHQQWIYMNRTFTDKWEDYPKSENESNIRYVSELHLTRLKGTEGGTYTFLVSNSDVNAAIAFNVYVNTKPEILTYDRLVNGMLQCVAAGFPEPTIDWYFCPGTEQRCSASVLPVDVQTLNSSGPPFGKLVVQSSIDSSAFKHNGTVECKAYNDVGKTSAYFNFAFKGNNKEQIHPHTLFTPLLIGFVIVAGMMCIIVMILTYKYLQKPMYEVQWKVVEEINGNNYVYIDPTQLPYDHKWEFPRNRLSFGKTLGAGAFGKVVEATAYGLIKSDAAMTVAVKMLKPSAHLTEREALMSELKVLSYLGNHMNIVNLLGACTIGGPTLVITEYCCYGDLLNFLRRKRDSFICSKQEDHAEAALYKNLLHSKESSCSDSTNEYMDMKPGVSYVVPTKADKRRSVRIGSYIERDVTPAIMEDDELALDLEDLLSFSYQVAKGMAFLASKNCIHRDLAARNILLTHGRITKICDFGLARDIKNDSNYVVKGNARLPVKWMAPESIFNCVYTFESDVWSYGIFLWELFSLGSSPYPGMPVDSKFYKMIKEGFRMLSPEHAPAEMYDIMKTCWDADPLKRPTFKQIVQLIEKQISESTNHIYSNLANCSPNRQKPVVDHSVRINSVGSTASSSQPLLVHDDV
UniProt Q9Y5S2, sequence (whole entry, looked up): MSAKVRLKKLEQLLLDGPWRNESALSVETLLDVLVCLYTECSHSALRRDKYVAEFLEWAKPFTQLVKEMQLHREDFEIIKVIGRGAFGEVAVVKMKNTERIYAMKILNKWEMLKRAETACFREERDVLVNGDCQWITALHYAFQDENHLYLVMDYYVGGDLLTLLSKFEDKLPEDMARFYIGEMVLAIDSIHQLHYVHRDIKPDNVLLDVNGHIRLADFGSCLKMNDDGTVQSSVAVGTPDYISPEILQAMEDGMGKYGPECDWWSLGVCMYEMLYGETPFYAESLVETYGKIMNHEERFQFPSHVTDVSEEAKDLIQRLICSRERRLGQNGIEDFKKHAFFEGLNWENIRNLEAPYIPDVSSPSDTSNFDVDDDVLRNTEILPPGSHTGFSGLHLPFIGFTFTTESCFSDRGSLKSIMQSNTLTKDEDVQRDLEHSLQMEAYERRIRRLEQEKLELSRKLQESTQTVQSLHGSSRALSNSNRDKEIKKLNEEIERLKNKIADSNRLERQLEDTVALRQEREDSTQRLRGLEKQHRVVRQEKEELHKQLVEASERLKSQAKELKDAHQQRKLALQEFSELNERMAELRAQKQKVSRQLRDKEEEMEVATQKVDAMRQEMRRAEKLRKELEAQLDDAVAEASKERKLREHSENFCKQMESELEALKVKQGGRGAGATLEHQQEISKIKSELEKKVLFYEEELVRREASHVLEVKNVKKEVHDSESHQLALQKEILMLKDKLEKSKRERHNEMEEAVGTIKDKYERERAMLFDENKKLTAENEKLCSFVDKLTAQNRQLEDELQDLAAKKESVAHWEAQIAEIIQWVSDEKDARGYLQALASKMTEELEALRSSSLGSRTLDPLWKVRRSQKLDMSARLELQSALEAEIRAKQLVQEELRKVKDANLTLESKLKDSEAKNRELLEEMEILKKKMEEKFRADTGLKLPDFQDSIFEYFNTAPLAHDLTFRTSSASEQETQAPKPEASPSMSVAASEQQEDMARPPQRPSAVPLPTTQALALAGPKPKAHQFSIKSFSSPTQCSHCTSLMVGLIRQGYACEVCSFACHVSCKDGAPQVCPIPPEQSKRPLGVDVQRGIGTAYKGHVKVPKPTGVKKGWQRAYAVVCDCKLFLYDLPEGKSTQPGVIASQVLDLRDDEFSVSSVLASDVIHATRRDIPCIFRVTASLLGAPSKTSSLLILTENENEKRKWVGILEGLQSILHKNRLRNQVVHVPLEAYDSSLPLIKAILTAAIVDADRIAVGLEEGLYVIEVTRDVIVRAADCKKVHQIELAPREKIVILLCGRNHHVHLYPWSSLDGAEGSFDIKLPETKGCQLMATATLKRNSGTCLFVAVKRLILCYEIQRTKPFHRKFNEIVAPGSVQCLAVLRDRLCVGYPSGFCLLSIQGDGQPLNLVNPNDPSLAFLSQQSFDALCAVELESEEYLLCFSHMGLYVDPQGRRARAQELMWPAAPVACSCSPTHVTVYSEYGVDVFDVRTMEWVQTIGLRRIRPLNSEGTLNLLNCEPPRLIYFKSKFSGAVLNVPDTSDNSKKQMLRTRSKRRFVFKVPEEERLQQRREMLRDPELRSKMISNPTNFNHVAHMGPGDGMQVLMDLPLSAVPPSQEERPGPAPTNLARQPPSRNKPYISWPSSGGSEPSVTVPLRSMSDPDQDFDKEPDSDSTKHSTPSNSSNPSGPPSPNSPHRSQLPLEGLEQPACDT
UniProt Q9HBY8, sequence (whole entry, looked up): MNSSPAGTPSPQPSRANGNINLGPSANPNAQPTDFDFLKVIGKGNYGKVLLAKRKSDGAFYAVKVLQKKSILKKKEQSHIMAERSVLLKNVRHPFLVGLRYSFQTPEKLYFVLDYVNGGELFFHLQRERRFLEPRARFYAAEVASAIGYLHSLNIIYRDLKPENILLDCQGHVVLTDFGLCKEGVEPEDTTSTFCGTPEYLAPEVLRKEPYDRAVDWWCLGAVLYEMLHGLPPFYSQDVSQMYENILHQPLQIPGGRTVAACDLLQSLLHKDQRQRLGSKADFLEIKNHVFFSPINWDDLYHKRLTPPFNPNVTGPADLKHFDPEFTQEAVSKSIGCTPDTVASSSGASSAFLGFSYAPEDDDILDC
UniProt Q15831, sequence (whole entry, looked up): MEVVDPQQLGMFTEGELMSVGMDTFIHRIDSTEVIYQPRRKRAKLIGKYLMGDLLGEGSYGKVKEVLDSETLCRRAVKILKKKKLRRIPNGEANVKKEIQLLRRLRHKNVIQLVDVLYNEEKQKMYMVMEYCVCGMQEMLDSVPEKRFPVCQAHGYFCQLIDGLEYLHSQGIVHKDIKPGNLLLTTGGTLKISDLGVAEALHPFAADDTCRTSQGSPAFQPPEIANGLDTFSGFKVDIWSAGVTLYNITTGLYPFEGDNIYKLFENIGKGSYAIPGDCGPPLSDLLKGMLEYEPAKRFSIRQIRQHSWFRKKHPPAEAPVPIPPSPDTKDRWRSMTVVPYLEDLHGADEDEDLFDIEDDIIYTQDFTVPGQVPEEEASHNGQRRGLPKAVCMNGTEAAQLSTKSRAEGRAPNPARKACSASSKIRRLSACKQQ
UniProt P61075, sequence (whole entry, looked up): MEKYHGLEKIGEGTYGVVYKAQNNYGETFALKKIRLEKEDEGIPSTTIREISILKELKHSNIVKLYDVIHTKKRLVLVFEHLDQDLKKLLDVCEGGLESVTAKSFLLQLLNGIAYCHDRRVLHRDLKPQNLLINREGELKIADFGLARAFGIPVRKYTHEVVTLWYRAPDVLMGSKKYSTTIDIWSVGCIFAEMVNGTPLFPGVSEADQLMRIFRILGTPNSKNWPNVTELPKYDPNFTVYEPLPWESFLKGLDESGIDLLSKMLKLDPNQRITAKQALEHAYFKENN

Structure (SMILES) = COc1ccc2oc(-c3ccc4nc(N)oc4c3)c/c(=N\c3ccccc3NC(=O)CCN)c2c1; target or system = EGFR (Homo sapiens, UniProt P00533, L861Q); assay = cell-free assay; setting = 1 µM; quantity = remaining signal; result = 96%
Structure (SMILES) = CCC(C)n1ncn(-c2ccc(N3CCN(c4ccc(OCC5COC(Cn6cncn6)(c6ccc(Cl)cc6Cl)O5)cc4)CC3)cc2)c1=O (stereo not shown); target or system = CTSL; assay = enzyme activity, inhibitor; setting = 100 µM; quantity = remaining activity; result = 66.4%
Structure (SMILES) = C1=C/COCc2cc(ccc2OCCN2CCCC2)Nc2nccc(n2)-c2cccc(c2)COC/1; target or system = EGFR (Homo sapiens, UniProt P00533, L858R/T790M); assay = binding; setting = 0.1 µM; quantity = remaining binding; result = 15%
Structure (SMILES) = CCN(O)N=Nc1ccc(S(=O)(=O)Nc2cc(C)on2)cc1; assay = ABTS scavenging; setting = 240 µg/mL; quantity = inhibition; result = 31.5%
Structure (SMILES) = CC[C@H](C)[C@H](NC(=O)[C@H](CCC(N)=O)NC(=O)[C@@H](NC(=O)[C@H](CCSC)NC(=O)[C@H](CCCCN)NC(=O)[C@H](CO)NC(=O)[C@@H](NC(=O)[C@H](CCSC)NC(=O)[C@H](CC(C)C)NC(=O)[C@H](CC(N)=O)NC(=O)[C@@H](NC(=O)[C@@H](NC(=O)[C@H](CO)NC(=O)[C@H](CC(C)C)NC(=O)[C@H](C)NC(=O)[C@H](CCCNC(=N)N)NC(=O)[C@H](CCC(=O)O)NC(=O)[C@H](Cc1ccc(O)cc1)NC(=O)[C@H](Cc1ccccc1)NC(=O)[C@H](C)NC(=O)[C@H](CC(N)=O)NC(=O)[C@@H](N)CCCCN)[C@@H](C)CC)[C@@H](C)CC)[C@@H](C)O)C(C)C)C(=O)N[C@@H](CC(N)=O)C(=O)N[C@H](C(=O)O)C(C)C; target or system = GSK3B; assay = enzyme activity, inhibitor, radiometric; setting = 1 µM, 20 min; quantity = remaining activity; result = 99%
Structure (SMILES) = CCCCC(=O)Nc1ccc(-c2ccc3ncn(CCC)c(=O)c3c2)cn1; target or system = CRK2 (Plasmodium falciparum, UniProt P61075); assay = binding, competition with immobilised ligand; setting = 0.5 µM; quantity = remaining binding; result = 98%
Structure (SMILES) = COc1cc(-c2cc(C(C)=O)n3ccccc23)c(OC)cc1CN1CCOCC1; target or system = BRD9 (Homo sapiens, UniProt Q9H8M2); assay = thermal stability, DSF; setting = 200 µM; quantity = ΔTm; result = 11 °C
Structure (SMILES) = OC[C@@H](O)[C@H](O)[C@@H](O)CO; target or system = USP51 (Homo sapiens, UniProt Q70EK9); assay = enzyme activity, inhibitor; setting = 5 µM; quantity = inhibition; result = 24%
Structure (SMILES) = COc1cccc(-c2n[nH]c(SCc3ccccn3)n2)c1OC; system = male Sprague-Dawley rat, plasma; setting = oral, 100 mg/kg, 2 h, single dose; quantity = concentration; result = 24800 ng/mL
Structure (SMILES) = COc1cc(-c2cncc3c2CN(C)Cc2cc(N4CCNCC4)ccc2-3)cc(OC)c1OC; target or system = SGK2 (Homo sapiens, UniProt Q9HBY8); assay = enzyme activity, inhibitor; setting = 1 µM; quantity = remaining activity; result = 128%
Structure (SMILES) = Nc1ccn([C@@H]2O[C@H](CO)[C@@H](O)C2(F)F)c(=O)n1; target or system = MCF7; assay = cell growth or viability, MTT; setting = 5 µg/mL, 24 h; quantity = viability; result = 36.8%
Structure (SMILES) = Cc1cc(O)c2c(c1)C(=O)c1cc(O)cc(O)c1C2=O; target or system = CTSL; assay = enzyme activity, inhibitor; setting = 100 µM; quantity = remaining activity; result = 33%
Structure (SMILES) = C=CC(=O)N1CCC(COCC(=O)N2CCN(c3nc(-c4cnc(N)nc4C(F)F)nc(N4CCOC[C@@H]4C)n3)CC2)CC1; target or system = KIT (Homo sapiens, UniProt P10721, D816H); assay = binding, competition with immobilised ligand; setting = 1 µM; quantity = remaining binding; result = 57%
Structure (SMILES) = Cc1[nH]c(C)c(C(=O)N2CCC(F)(F)C2)c1C(=O)Nc1ccc(C(F)(F)F)c(Cl)c1; target or system = DRD3; assay = β-arrestin recruitment, agonist; setting = 90 min; quantity = Emax; result = 82%
Structure (SMILES) = O=CCCc1ccccc1; target or system = CTSL; assay = enzyme activity, inhibitor; setting = 100 µM; quantity = remaining activity; result = 114%
Structure (SMILES) = Nc1ncnc2occ(-c3ccc(NC(=O)Nc4cc(C(F)(F)F)ccc4F)cc3)c12; target or system = KIT (Homo sapiens, UniProt P10721, V559D); assay = cell-free assay, inhibitor; setting = 20 µM; quantity = remaining signal; result = 0.1%
Structure (SMILES) = Cc1cc([C@@H](C)Nc2ccccc2C(=O)O)c2nc(N3CCC(F)(F)CC3)c(C#N)c(=O)n2c1; target or system = STK11 (Homo sapiens, UniProt Q15831); assay = binding, competition with immobilised ligand; setting = 10 µM; quantity = remaining binding; result = 100%
Structure (SMILES) = O=CC(O)CO (stereo not shown); target or system = CTSL; assay = enzyme activity, inhibitor; setting = 100 µM; quantity = remaining activity; result = 127%
Structure (SMILES) = CC[C@H](C)[C@H](NC(=O)[C@H](CCC(N)=O)NC(=O)[C@H](CC(C)C)NC(=O)[C@H](CCSC)NC(=O)[C@H](CCCCN)NC(=O)[C@H](CO)NC(=O)[C@H](CO)NC(=O)[C@H](CCSC)NC(=O)[C@H](CC(C)C)NC(=O)[C@H](CC(N)=O)NC(=O)[C@@H](NC(=O)[C@@H](NC(=O)[C@H](CO)NC(=O)[C@H](CC(C)C)NC(=O)[C@H](CS)NC(=O)[C@H](CCCNC(=N)N)NC(=O)[C@H](CC(=O)O)NC(=O)[C@H](Cc1c[nH]c2ccccc12)NC(=O)[C@H](Cc1ccccc1)NC(=O)[C@H](C)NC(=O)[C@H](CCC(=O)O)NC(=O)[C@@H](N)CCCCN)C(C)C)[C@@H](C)CC)C(=O)N[C@@H](CC(N)=O)C(=O)N[C@@H](C)C(=O)O; target or system = GSK3B; assay = enzyme activity, inhibitor, radiometric; setting = 50 µM, 20 min; quantity = remaining activity; result = 100%
Structure (SMILES) = O=C1CC[C@H](N2Cc3cc(N4CCN(CC5CCN(c6ccc([C@@H]7c8ccc(O)cc8CC[C@@H]7c7ccccc7)cc6)CC5)CC4)ccc3C2=O)C(=O)N1; system = male Sprague-Dawley rat, plasma; setting = oral, 20 mg/kg; quantity = bioavailability; result = 26.6%
Structure (SMILES) = COc1cc(O)cc(O)c1C(=O)C=Cc1ccccc1; target or system = CTSL; assay = enzyme activity, inhibitor; setting = 100 µM; quantity = remaining activity; result = 14.8%
Structure (SMILES) = CNc1ncc2c(/C=C/C(=O)N3CCC(OC)CC3)nn(Cc3cccc(C(F)(F)F)c3)c2n1; target or system = CDC42BPB (Homo sapiens, UniProt Q9Y5S2); assay = enzyme activity, inhibitor, radiometric; setting = 1 µM; quantity = remaining activity; result = 86%
Structure (SMILES) = O=C1CC(c2ccc(O)cc2)Oc2cc(O)cc(O)c21 (stereo not shown); target or system = CTSL; assay = enzyme activity, inhibitor; setting = 100 µM; quantity = remaining activity; result = 112%
Structure (SMILES) = O=C1NCCc2[nH]cc(S(=O)(=O)Nc3ccc(C(F)(F)F)c(Cl)c3)c21; target or system = DRD3; assay = β-arrestin recruitment, agonist; setting = 90 min; quantity = Emax; result = 106%
Structure (SMILES) = CC1(C)CCC2=C(O1)c1ccccc1C(=O)C2=O; target or system = CTSL; assay = enzyme activity, inhibitor; setting = 100 µM; quantity = remaining activity; result = 8.35%
Structure (SMILES) = CC(=O)Nc1ccc(Oc2ccc3c(c2)C(=O)N(c2cc(C)ccc2C)C3=O)cc1; target or system = Fibroblast growth factor 14 (Homo sapiens, UniProt Q92915); assay = binding, SPR; quantity = koff; result = 0.648 s⁻¹
Structure (SMILES) = Cc1noc(NS(=O)(=O)c2ccc(N=NN(C)O)cc2)c1C; assay = ABTS scavenging; setting = 180 µg/mL; quantity = inhibition; result = 82.6%
Structure (SMILES) = CC[C@H](C)[C@H](NC(=O)[C@H](CCC(N)=O)NC(=O)[C@H](CCCNC(=N)N)NC(=O)[C@H](CO)NC(=O)[C@H](Cc1c[nH]cn1)NC(=O)[C@@H]1CCCN1C(=O)[C@H](C)NC(=O)[C@H](CO)NC(=O)[C@H](CC(C)C)NC(=O)CNC(=O)[C@@H]1CCCN1C(=O)[C@H](CCC(N)=O)NC(=O)[C@H](CCC(N)=O)NC(=O)[C@H](CCCNC(=N)N)NC(=O)[C@H](CO)NC(=O)CNC(=O)[C@H](CO)NC(=O)[C@H](CO)NC(=O)[C@H](CCC(=O)O)NC(=O)[C@@H]1CCCN1C(=O)[C@@H]1CCCN1C(=O)[C@@H]1CCCN1C(=O)[C@H](CO)NC(=O)[C@H](CC(C)C)NC(=O)[C@H](CO)NC(=O)[C@@H](NC(=O)CN)[C@@H](C)O)C(=O)N1CCC[C@H]1C(=O)N[C@@H](C)C(=O)N1CCC[C@H]1C(=O)N[C@@H](CCC(N)=O)C(=O)NCC(=O)N[C@@H](C)C(=O)N[C@H](C(=O)N[C@@H](CC(C)C)C(=O)N[C@H](C(=O)N[C@@H](CCC(N)=O)C(=O)N[C@@H](CCCNC(=N)N)C(=O)N[C@@H](CCC(=O)O)C(=O)N[C@@H](CCCCN)C(=O)N[C@@H](CC(=O)O)C(=O)N[C@@H](CC(C)C)C(=O)N1CCC[C@H]1C(=O)N[C@@H](CC(N)=O)C(=O)N[C@@H](Cc1ccc(O)cc1)C(=O)N[C@@H](CC(N)=O)C(=O)N[C@@H](Cc1c[nH]c2ccccc12)C(=O)N[C@@H](CC(N)=O)C(=O)N[C@@H](CO)C(=O)N[C@@H](Cc1ccccc1)C(=O)NCC(=O)N[C@@H](CC(C)C)C(=O)N[C@@H](CCCNC(=N)N)C(=O)N[C@@H](Cc1ccccc1)C(N)=O)C(C)C)C(C)C; target or system = KiSS-1 receptor (KISS1R, Homo sapiens, UniProt Q969F8, R297A); assay = inositol phosphate, agonist; system = HEK293; quantity = Emax; result = 98.2%

A few entries again:
Structure (SMILES) = O=C1NCCc2[nH]cc(S(=O)(=O)Nc3ccc(C(F)(F)F)c(Cl)c3)c21; target or system = DRD3; assay = β-arrestin recruitment, agonist; setting = 90 min; quantity = Emax; result = 106%
Structure (SMILES) = CC1(C)CCC2=C(O1)c1ccccc1C(=O)C2=O; target or system = CTSL; assay = enzyme activity, inhibitor; setting = 100 µM; quantity = remaining activity; result = 8.35%
Structure (SMILES) = CC(=O)Nc1ccc(Oc2ccc3c(c2)C(=O)N(c2cc(C)ccc2C)C3=O)cc1; target or system = Fibroblast growth factor 14 (Homo sapiens, UniProt Q92915); assay = binding, SPR; quantity = koff; result = 0.648 s⁻¹
Structure (SMILES) = Cc1noc(NS(=O)(=O)c2ccc(N=NN(C)O)cc2)c1C; assay = ABTS scavenging; setting = 180 µg/mL; quantity = inhibition; result = 82.6%
Structure (SMILES) = CC[C@H](C)[C@H](NC(=O)[C@H](CCC(N)=O)NC(=O)[C@H](CCCNC(=N)N)NC(=O)[C@H](CO)NC(=O)[C@H](Cc1c[nH]cn1)NC(=O)[C@@H]1CCCN1C(=O)[C@H](C)NC(=O)[C@H](CO)NC(=O)[C@H](CC(C)C)NC(=O)CNC(=O)[C@@H]1CCCN1C(=O)[C@H](CCC(N)=O)NC(=O)[C@H](CCC(N)=O)NC(=O)[C@H](CCCNC(=N)N)NC(=O)[C@H](CO)NC(=O)CNC(=O)[C@H](CO)NC(=O)[C@H](CO)NC(=O)[C@H](CCC(=O)O)NC(=O)[C@@H]1CCCN1C(=O)[C@@H]1CCCN1C(=O)[C@@H]1CCCN1C(=O)[C@H](CO)NC(=O)[C@H](CC(C)C)NC(=O)[C@H](CO)NC(=O)[C@@H](NC(=O)CN)[C@@H](C)O)C(=O)N1CCC[C@H]1C(=O)N[C@@H](C)C(=O)N1CCC[C@H]1C(=O)N[C@@H](CCC(N)=O)C(=O)NCC(=O)N[C@@H](C)C(=O)N[C@H](C(=O)N[C@@H](CC(C)C)C(=O)N[C@H](C(=O)N[C@@H](CCC(N)=O)C(=O)N[C@@H](CCCNC(=N)N)C(=O)N[C@@H](CCC(=O)O)C(=O)N[C@@H](CCCCN)C(=O)N[C@@H](CC(=O)O)C(=O)N[C@@H](CC(C)C)C(=O)N1CCC[C@H]1C(=O)N[C@@H](CC(N)=O)C(=O)N[C@@H](Cc1ccc(O)cc1)C(=O)N[C@@H](CC(N)=O)C(=O)N[C@@H](Cc1c[nH]c2ccccc12)C(=O)N[C@@H](CC(N)=O)C(=O)N[C@@H](CO)C(=O)N[C@@H](Cc1ccccc1)C(=O)NCC(=O)N[C@@H](CC(C)C)C(=O)N[C@@H](CCCNC(=N)N)C(=O)N[C@@H](Cc1ccccc1)C(N)=O)C(C)C)C(C)C; target or system = KiSS-1 receptor (KISS1R, Homo sapiens, UniProt Q969F8, R297A); assay = inositol phosphate, agonist; system = HEK293; quantity = Emax; result = 98.2%
